Assay results collected from several papers.
Numbered parts are unrelated; each lists some results of a single study.

Sample 1
Target: Interferon regulatory factor 5, full length, phosphomimetic (IRF5, Homo sapiens, UniProt Q13568-2, residues 1-514, K96S/S451D/S453D/S456D/S462D)
Technique: protein-binding microarray
Molecule type: double-stranded DNA, one strand shown
Medium: in vitro
Tested at: 250 nM
Notes: 60-bp whole probe
Added: salmon DNA 0.4 mg/ml
Reference: random background probes
Reading: higher = stronger binding
All sequences stand within: GCCTAGCAC … GTCTTGATTCGCTTGACGCTGCTG
Oligonucleotide | log fluorescence
TCAGGTCTGGATGTGCCACTGTGCTAG | -0.299 z-score
TTAGGACTGGGGACTGGCTTAGTGCTA | -0.324 z-score
TTAGGTATCCGGACTGGGTTAGTGCTA | -0.16 z-score
GACGGTTTCCTACTGCGGACGTGCTAG | 0.329 z-score
TTAGGACTGGGTATCGGTTCGTGCTAG | 2.85 z-score
TTAGGTCTCCTTCTCCCTTAGTGCTAG | -0.171 z-score
TTAGGTATGCTACTGCTTTAGTGCTAG | -0.473 z-score
TCACCATTAAATTTTAAACTGTGCTAG | 0.456 z-score
TTAGGCATCCTTATCCTTTAGTGCTAG | -0.422 z-score
GAGGGTTTCGGTTCCGGGACGTGCTAG | 8.62 z-score
GACGGGATCCTTCTCCTGACGTGCTAG | -0.152 z-score

Sample 2
Target: Fragile X messenger ribonucleoprotein 1, C-terminal low-complexity region (Fmr1, Mus musculus, UniProt P35922)
Technique: RNA Bind-n-Seq
Molecule type: RNA
Medium: in vitro
Tested at: 200 nM
Notes: whole 134-nt RNA, ends assumed
Added: 150 mM KCl
Reference: input library
Reading: higher = stronger binding
All sequences stand within: GGGAGUUCUACAGUCCGACGAUC … UGGAAUUCUCGGGUGUCAAGG
Oligonucleotide | log2 enrichment
CCUGUGCUACACAUCGUAUGUACCGAAUCAAACCCCCCCAAACCCCCCCAAAUUUUUAAAAAAGUAUUAUGUUACGCCGUUCGGAUCUGC | -0.09
ACCAUGCAGGUGGGCAUCUUUGGGAAGUGGGGCAAGGGGGGGAUAGGGAGGGGGAUAACACUUUGGGAACAGGUGGUCCCAGGUCGUUUC | 0.904
GCAGGAAGUAAAAACAAAUGGAAAUGCUUCGGAUAGUGGCAGGGGUGGGGGUUGCUAAGGAAAGGGUGGGAUGGGAGUGGGUAAAUAGUU | -0.167
CACAGACAACACGCACCCACACAGACACAGAGGGAAGGGGUUGGGAUGGGGACAGGGUGCACAGCAGGGCGGGGUAAGACCCCAGCCCCU | 1.39
GUCCUGUGCUACACAUCGUAUGUACCGAAUCGGGGUGGGGAAAGGGGUUUUUUUGGGGAAAGUAUUAUGUUACGCCGUUCGGAUCUGCAC | 0.583

Sample 3
Target: Histone acetyltransferase KAT6A, winged helix 2, GST fusion (KAT6A, Homo sapiens, UniProt Q92794, residues 85-181)
Technique: protein binding microarray
Molecule type: double-stranded DNA, one strand shown
Medium: in vitro
Tested at: not given
Notes: 8-mer, flanks averaged, mean of 2 arrays, mostly near background
Reference: not given
Reading: higher = stronger binding
Residues (chain): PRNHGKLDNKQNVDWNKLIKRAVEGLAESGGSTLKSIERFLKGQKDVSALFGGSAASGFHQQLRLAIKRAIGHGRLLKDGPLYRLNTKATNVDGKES
Oligonucleotide | E-score
GTAGAATA | -0.0511
GTCAGAAC | 0.00435
CCTGACAA | 0.0736
AACAGTTC | 0.0372
GACGTCAC | -0.184
CTTACTCC | -0.0048
CCAGGATA | -0.0158

Other studies, line by line
Substance | target | test | test system | setting | scale | endpoint | value
PhoQ, residues 284 288 289 292 302 303 GANMMA | PhoP, residues 12 14 15 18 19 QWHVF (Escherichia coli, UniProt P23836) | Sort-seq, item: YFP reporter | E. coli | PhoQ-PhoP variant library, added: 10 µM Mg2+ | reference: high Mg2+ state, higher = stronger signaling | fold induction | 1.28

Some of these lines once more (sample 2):
Oligonucleotide | log2 enrichment
CCUGUGCUACACAUCGUAUGUACCGAAUCAAACCCCCCCAAACCCCCCCAAAUUUUUAAAAAAGUAUUAUGUUACGCCGUUCGGAUCUGC | -0.09
GCAGGAAGUAAAAACAAAUGGAAAUGCUUCGGAUAGUGGCAGGGGUGGGGGUUGCUAAGGAAAGGGUGGGAUGGGAGUGGGUAAAUAGUU | -0.167
